Results gathered from unrelated publications.
A part holds a random share of what one study measured. “And” joins repeats or separate records; there may be more than shown.
Sequence of UniProt Q9UHD2 (whole entry, looked up): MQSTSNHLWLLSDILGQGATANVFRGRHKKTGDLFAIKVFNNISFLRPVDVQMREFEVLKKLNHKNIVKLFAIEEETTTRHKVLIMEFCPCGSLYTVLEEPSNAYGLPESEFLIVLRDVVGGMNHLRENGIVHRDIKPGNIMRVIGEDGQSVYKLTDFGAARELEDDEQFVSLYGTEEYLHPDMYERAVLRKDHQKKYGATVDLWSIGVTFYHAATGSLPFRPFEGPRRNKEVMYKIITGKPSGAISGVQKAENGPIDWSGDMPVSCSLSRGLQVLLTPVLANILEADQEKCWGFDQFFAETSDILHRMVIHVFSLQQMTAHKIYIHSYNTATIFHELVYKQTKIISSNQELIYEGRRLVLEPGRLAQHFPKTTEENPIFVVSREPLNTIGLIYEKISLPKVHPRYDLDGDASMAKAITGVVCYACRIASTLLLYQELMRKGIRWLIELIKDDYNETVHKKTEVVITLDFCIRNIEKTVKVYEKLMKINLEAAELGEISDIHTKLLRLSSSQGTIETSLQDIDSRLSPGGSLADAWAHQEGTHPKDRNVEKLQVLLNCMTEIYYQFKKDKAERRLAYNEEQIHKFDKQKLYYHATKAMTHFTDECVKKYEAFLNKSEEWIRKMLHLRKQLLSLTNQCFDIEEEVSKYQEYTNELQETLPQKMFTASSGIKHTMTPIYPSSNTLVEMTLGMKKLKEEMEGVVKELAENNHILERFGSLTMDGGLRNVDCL
Sequence of UniProt Q9Y6M4 (whole entry, looked up): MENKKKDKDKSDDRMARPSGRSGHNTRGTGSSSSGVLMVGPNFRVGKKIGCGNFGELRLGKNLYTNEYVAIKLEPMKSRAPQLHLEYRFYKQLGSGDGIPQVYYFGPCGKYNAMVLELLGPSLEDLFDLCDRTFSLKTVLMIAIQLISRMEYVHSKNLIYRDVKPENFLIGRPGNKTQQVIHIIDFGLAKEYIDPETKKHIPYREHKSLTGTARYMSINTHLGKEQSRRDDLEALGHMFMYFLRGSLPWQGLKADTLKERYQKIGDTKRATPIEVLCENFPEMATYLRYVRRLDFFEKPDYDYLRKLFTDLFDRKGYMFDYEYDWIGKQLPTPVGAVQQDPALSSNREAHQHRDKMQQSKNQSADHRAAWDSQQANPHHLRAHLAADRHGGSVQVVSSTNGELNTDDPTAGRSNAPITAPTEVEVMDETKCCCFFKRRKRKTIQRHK
Sequence of UniProt P49336 (whole entry, looked up): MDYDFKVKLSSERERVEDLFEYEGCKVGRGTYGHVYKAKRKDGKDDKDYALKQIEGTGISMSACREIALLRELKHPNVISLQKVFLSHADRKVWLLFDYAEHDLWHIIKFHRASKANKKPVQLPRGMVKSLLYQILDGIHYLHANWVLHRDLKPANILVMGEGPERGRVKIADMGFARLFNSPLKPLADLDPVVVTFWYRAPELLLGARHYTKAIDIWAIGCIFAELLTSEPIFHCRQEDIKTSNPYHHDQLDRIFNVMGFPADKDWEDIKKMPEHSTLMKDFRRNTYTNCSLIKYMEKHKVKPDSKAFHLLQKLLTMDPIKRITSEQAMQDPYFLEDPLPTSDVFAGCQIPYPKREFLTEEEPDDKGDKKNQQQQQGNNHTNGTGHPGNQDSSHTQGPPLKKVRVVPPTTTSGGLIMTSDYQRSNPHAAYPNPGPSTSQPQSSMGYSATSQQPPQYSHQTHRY
Sequence of UniProt P29320 (whole entry, looked up): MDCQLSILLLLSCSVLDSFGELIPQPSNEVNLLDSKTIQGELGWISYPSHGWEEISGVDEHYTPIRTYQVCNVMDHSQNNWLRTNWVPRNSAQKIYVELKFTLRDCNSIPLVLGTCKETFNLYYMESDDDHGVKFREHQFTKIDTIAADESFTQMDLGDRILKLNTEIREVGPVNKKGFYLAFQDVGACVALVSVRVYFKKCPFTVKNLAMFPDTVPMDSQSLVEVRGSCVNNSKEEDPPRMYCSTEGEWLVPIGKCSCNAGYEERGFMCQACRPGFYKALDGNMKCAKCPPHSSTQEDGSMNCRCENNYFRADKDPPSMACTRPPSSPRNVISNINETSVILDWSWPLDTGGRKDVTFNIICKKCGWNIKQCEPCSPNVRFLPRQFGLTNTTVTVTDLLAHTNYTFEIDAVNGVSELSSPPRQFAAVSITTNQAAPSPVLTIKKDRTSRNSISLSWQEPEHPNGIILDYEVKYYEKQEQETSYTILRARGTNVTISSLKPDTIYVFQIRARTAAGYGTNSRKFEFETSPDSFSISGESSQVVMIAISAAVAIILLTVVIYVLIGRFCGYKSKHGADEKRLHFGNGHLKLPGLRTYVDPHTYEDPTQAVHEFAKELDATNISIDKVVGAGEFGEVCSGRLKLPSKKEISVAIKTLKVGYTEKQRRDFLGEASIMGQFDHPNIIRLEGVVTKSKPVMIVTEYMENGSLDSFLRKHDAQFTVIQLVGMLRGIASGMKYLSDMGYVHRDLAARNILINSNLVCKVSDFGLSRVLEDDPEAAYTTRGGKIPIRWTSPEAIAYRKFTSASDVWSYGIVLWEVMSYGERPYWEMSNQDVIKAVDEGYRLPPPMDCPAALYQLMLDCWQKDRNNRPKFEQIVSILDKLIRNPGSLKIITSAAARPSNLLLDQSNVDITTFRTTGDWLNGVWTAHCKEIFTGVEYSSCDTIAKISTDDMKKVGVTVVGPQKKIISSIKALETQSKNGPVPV
Sequence of UniProt P29376 (whole entry, looked up): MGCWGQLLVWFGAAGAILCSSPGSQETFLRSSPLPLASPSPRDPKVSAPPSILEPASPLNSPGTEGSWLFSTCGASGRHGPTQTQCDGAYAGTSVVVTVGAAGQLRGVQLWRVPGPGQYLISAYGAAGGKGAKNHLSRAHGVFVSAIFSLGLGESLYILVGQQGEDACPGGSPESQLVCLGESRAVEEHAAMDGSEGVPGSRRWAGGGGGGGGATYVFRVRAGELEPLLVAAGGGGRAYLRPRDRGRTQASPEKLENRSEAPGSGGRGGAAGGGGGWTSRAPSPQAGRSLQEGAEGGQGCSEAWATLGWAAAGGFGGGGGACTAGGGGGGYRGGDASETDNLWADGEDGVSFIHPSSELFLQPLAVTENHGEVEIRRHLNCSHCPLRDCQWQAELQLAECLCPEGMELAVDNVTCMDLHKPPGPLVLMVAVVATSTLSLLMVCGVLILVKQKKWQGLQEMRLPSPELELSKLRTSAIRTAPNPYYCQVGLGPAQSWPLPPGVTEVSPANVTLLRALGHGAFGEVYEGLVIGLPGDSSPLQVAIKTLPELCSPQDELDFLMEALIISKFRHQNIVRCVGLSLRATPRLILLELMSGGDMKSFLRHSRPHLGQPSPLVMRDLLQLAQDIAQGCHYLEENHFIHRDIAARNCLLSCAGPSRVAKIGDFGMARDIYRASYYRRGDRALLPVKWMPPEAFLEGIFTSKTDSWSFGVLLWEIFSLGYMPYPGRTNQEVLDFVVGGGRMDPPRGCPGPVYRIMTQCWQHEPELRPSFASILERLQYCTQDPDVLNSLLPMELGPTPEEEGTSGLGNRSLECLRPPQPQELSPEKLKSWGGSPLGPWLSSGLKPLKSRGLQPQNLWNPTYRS
Sequence of UniProt Q8IY84 (whole entry, looked up): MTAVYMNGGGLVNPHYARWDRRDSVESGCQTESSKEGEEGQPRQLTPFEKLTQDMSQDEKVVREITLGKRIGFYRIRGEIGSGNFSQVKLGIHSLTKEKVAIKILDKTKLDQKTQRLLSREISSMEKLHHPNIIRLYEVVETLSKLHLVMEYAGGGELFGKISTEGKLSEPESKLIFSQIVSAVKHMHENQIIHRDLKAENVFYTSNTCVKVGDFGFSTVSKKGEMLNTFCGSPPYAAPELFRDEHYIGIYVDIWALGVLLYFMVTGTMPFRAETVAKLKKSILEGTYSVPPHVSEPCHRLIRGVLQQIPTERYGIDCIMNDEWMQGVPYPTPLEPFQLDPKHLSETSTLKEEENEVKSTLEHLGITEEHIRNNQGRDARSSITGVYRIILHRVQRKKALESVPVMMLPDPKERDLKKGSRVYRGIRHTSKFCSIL
Sequence of UniProt Q00536 (whole entry, looked up): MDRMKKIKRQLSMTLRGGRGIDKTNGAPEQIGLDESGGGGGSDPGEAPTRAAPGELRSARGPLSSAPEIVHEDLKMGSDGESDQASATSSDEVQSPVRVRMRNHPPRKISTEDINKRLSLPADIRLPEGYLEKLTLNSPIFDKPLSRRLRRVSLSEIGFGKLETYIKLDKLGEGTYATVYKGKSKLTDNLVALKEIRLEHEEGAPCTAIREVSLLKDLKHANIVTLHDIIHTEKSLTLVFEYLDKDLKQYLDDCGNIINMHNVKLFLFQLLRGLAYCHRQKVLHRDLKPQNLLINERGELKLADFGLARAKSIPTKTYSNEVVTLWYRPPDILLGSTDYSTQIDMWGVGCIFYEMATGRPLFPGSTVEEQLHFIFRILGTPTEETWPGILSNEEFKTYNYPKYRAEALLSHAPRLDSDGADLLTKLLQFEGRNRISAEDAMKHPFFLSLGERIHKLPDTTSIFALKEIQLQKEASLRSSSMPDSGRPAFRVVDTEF

Series 1 — observed: cell-free assay; technique: competition with immobilised ligand; concentration: 1 µM; measurement: remaining binding
Compound: Cn1cncc1[C@@](O)(COc1ccc(C#N)cc1-c1ccc(OC(F)(F)F)cc1)c1ccc(C#N)cc1
target = MAP3K19 (Homo sapiens, UniProt Q56UN5); result = 100%
target = NIM1K (Homo sapiens, UniProt Q8IY84); result = 97%
target = MAP3K9 (Homo sapiens, UniProt P80192); result = 98%
target = CDK8 (Homo sapiens, UniProt P49336); result = 100%
target = LTK (Homo sapiens, UniProt P29376); result = 100%
target = Aurora kinase B (AURKB, Homo sapiens, UniProt Q96GD4); result = 100%
target = CDK16 (Homo sapiens, UniProt Q00536); result = 85%
target = TBK1 (Homo sapiens, UniProt Q9UHD2); result = 100%
target = TLK1 (Homo sapiens, UniProt Q9UKI8); result = 100%
target = FLT3 (Homo sapiens, UniProt P36888); result = 100%
target = FLT3 (Homo sapiens, UniProt P36888, D835H); result = 67%
target = WNK4 (Homo sapiens, UniProt Q96J92); result = 85%
target = FLT3 (Homo sapiens, UniProt P36888, D835V); result = 89%
target = FLT3 (Homo sapiens, UniProt P36888, D835V/ITD); result = 80%
target = SRC (Homo sapiens, UniProt P12931); result = 100%
target = SIK3 (Homo sapiens, UniProt Q9Y2K2); result = 97%

Series 2 — Compound: Cc1ccc(O)cc1Nc1ccnc2cc(-c3ccccn3)ccc12; cell line: L929; technique: CCK-8; measurement: viability
assay = necroptosis protection; setting = 0.007 µM, together with: TNF-α-induced; result = 16.1%
assay = necroptosis protection; setting = 0.156 µM, together with: TNF-α-induced; result = 40.9%
setting = 3.125 µM, together with: zVAD; result = 49.5% and 51.3% and 62.3% and 60.5%
assay = necroptosis protection; setting = 5 µM, together with: TNF-α-induced; result = 53.9%
assay = necroptosis protection; setting = 1.25 µM, together with: TNF-α-induced; result = 63.8%

Series 3 — species: mouse; matrix: microsomes or S9; concentration: 2 µM; time: 0.5 h; measurement: remaining compound
Compound = O=C(CCc1ccsc1)Nc1ccc2c(c1)CNCC2; result = 71.6%
Compound = CC(NNc1ccccc1)=C1C(=O)NC(=O)NC1=O; result = 61.5%
Compound = Cc1ccc(C[C@H](NCc2ccccc2)c2cccs2)cc1; result = 0.013%

Series 4 — Compound: COc1ccc2c(c1)/C(=C/c1cnc[nH]1)C(=O)N2; observed: enzyme activity; action: inhibitor; concentration: 0.5 µM; measurement: remaining activity
target = ARAF (Homo sapiens, UniProt P10398); scale = baseline: control; result = 111%
target = ACVR1B (Homo sapiens, UniProt P36896); scale = baseline: control; result = 105%
target = GRK7 (Homo sapiens, UniProt Q8WTQ7); scale = baseline: control; result = 99.7%
target = ABL2 (Homo sapiens, UniProt P42684); scale = baseline: control; result = 90.6%
target = MAP2K2 (Homo sapiens, UniProt P36507); scale = baseline: control; result = 108%
target = ULK2 (Homo sapiens, UniProt Q8IYT8); scale = baseline: control; result = 97.7%
target = TBK1 (Homo sapiens, UniProt Q9UHD2); scale = baseline: control; result = 70.7%
target = EPHA3 (Homo sapiens, UniProt P29320); scale = baseline: control; result = 93.3%
target = CSNK1G3 (Homo sapiens, UniProt Q9Y6M4); scale = baseline: control; result = 103%
target = DYRK1B (Homo sapiens, UniProt Q9Y463); assay = radiometric; result = 53.1%

Excerpt of the above (series 2):
assay = necroptosis protection; setting = 0.156 µM, together with: TNF-α-induced; result = 40.9%
setting = 3.125 µM, together with: zVAD; result = 49.5% and 51.3% and 62.3% and 60.5%
assay = necroptosis protection; setting = 1.25 µM, together with: TNF-α-induced; result = 63.8%
